Experimental data gathered from unrelated publications.
Parts stem from different laboratories: compare values within a part only. Substitutions count along the parent as printed.

Study 1 — method: protein-binding microarray; molecule type: double-stranded DNA, one strand shown; sample: in vitro; concentration: 940 nM top; notes: 60-bp whole probe; together with: salmon DNA 0.4 mg/ml; reference: random background probes; direction: higher = stronger binding; all sequences stand within: GCCTAGCAC … GTCTTGATTCGCTTGACGCTGCTG
Target: Interferon regulatory factor 5, full length, phosphomimetic (IRF5, Homo sapiens, UniProt Q13568-2, residues 1-514, S451D/S453D/S456D/S462D)
Strand | fitted relative affinity
TTTGCTTTCCTGATGGTCTTGTGCTAG | 0.236 z-score
TCATTTCTCATTCGTCATACTGTGCTA | 2.58 z-score
TGATCCAAAAAGTGTGAGAAGTGCTAG | -0.358 z-score
TTCGCTTTCTTTACCACATTGTGCTAG | 1.64 z-score
TCAATTTTTAGTTAGAAACTGTGCTAG | -0.109 z-score
TTAGGATTGCTACTGCTTTAGTGCTAG | -0.54 z-score
GACGAACTGAGTACCGAGACGTGCTAG | -0.105 z-score
TCAATTCTCTTTTCACTACTGTGCTAG | 2.15 z-score
GACGGTCTCCTTCACCTGACGTGCTAG | 0.449 z-score
TCATGTTTCCATCTCTCACTGTGCTAG | 1.61 z-score
TTAGGACTGCTCCTGCTTTAGTGCTAG | -0.655 z-score
TTAGGTTTCGACTTCCGGTTAGTGCTA | 9.32 z-score
GGACTCACCTAGTTTCATTCCGTGCTA | 2.84 z-score
TTAGGACTGCTTATCCTATAGTGCTAG | -0.142 z-score
CTAATTTTGAGACTCATGGGGTGCTAG | -0.109 z-score
TCAGGACTGGGGACTGGGTTAGTGCTA | -0.35 z-score
TTAGGTCTAGGTTTCGGTTAGTGCTAG | 7.22 z-score
CAGCCAATCAGGACTCAGGGAGTGCTA | -0.443 z-score
GCAGGTCTGGACCCAGACTCGTGCTAG | -0.477 z-score

Study 2 — method: RNA Bind-n-Seq; molecule type: RNA; sample: in vitro; concentration: not given; reference: input RNA pool; direction: higher = stronger binding
Target: RING finger protein unkempt homolog, zinc fingers 1-6, GST-SBP tag (UNK, Homo sapiens, UniProt Q9C0B0, residues 30-357)
Notes: RNA with constant flanks, human and mouse sites, ends assumed
All sequences stand within: GGGAGUUCUACAGUCCGACGAUC … CAACAGAGGAUUGAGCAUCA
Target sequence (chain): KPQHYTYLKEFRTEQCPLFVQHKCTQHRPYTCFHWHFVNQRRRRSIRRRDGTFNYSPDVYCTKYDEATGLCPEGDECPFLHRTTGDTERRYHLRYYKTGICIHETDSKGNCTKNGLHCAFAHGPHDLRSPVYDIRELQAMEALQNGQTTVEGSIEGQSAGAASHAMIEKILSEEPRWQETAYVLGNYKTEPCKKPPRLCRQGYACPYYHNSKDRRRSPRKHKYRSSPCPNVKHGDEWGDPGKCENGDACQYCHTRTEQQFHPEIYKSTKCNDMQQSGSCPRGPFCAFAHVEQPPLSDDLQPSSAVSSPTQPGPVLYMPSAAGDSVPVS
Strand | bound/input enrichment [ratio]
UCAUUUAUUAGAUACAAUAGCCAAAGAAUAAAGUAAAAACUCCUUUUUACCUUGCUGCCCAAUAGGAAUCAGAUGACUUAAAUACUAGGCCUUACUAGGGUCUCUUGGCUUUGGAGUUUU | 15.9
CCGAGCAUUCUGUGUUACCAUCCUGCAAAGCCAUUCCAAUCUCAGUUGCCCAGUGUAAAAGAAGGCAUUUCUGAGGAUCUUCCUGUGAAAAUGCCUUGUCUCUACCUGCAGACAUUAGCU | 0.56
CCACCUCCACCGCCACCUCCACCACCUCCACCACCACCACCACAAUCCCUGGAAUUAUUAUUACUCCCAGUUCCUAAGGGAAGAGUUUCUAAACCCUCCAAUUCAGCCUCAGAAGAGGAA | 0.661
GCAGGAGACUGCGUUGCCCUGCUGCAGUCGUGUGAGCCUGCACUCGAUGCUGCCUUUGUGACUAGCCUGUCUUAGGCGGCAGCAUUGAAGUGGCUACCGGCUUCCCCAGACCUCUCUUCA | 0.0585
UCUAAUAUUAGCCUUGUCUUUGAUUUUAUGGAAACUGAUCUAGAGGUUAUAAUAAAGGAUAAUAGUCUUGUGCUGACACCAUCACACAUCAAAGCCUACAUGUUGAUGACUCUUCAAGGA | 0.481
AGUUUUGUCUGAGAUGCACCUUGCAUGGUACGUGUGUGAGAGGUUGUGCAAGUUCUGAGACUUAGACAAUUCAGAAGUCACCCUUCUGAGGGAACAGUUCCCAAAAUGGAGCAAUAAAGG | 0.247
UUUCUUUUUUUUUCCCCUUUCUUCUUCCUCCCUCCCAAUUCCAACACCUCCAACCCCCAAACUAGGCUGGCCUCGAACUCACUAUUGUAGAAAGAUGUCCUUGAAGUCUCAAUCCUCCUG | 3.36
GCUACUUUAACCUAUGAUAAUUAUUUACAAAAUUUUAACACUAACCAAACAAUGCAGAUCUUAGGGAUGAUUAAAGGCAGCAUUUGAUGAUAGCAGACAUUGUUACAAGGACAUGGUGAG | 7.13

Study 3 — target: CCND2, cyclin fold, Cln2 fusion (human); method: yeast growth competition, sequencing; sample: yeast; notes: weak parent motif; reference: not given; direction: higher = stronger binding
Starting sequence: BORA docking peptide (human); SSLRRKLFLDGNG; partner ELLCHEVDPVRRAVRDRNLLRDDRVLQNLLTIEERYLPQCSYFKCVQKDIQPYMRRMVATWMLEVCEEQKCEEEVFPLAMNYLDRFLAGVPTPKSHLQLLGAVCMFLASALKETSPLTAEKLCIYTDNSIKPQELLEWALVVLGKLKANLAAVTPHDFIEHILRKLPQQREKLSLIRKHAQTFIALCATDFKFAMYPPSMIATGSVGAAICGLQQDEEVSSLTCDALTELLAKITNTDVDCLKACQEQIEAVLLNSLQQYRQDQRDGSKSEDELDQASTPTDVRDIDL
Variant | normalised enrichment score
SSLRKKLFLDGNG [R5K] | -0.0717
SSLRRKLLLDGNG [F8L] | -0.34
SSLRKKLLLDGNG [R5K F8L] | 0.15
SSLRRKLFLDANG [G11A] | 0.23
SSLRRKAFLDGNG [L7A] | 0.0101
SSARRKLFLDGNG [L3A] | -0.193
SSLRRALFLDGNG [K6A] | -0.0702
SALRRKLFLDGNG [S2A] | 0.245
SSLRRKLFLDGAG [N12A] | 0.211
SSLRAKAFLDGNG [R5A L7A] | -0.186
SSLRAKLFLDGNG [R5A] | -0.0313

Study 4 — method: universal PBM; molecule type: double-stranded DNA, one strand shown; sample: in vitro; concentration: not given; direction: higher = stronger binding
Target: Sal-like protein 4, full length isoform B (SALL4, Homo sapiens, UniProt Q9UJQ4-2, residues 1-616)
Notes: 8-mer, flanks averaged, mean of replicates
Strand | E-score
TACTCGCA | -0.0116
AACTCCAA | -0.0328
GAATTCCC | -0.131
ACTGAGGG | -0.235
CCCGATTC | -0.0986
AGCACTAG | -0.11
CCAAAAAC | 0.102
ATCATGAA | 0.13
AGCGGCCA | -0.305
CGGAGGCA | -0.209
CAGGTGAG | -0.203
GAAAGCCC | -0.141
GCGCTAGA | -0.147
AACAACCC | -0.0205
AACATTCC | 0.0514
GGACACAC | -0.218
TAAAGTCA | 0.173
GAATAACA | 0.196
AGAAACGG | -0.0502
AAAGGAGG | 0.0339
AGGACTAA | 0.118

Study 5 — method: DHFR PCA, deep sequencing; sample: yeast; together with: (+)-ABA 710 µM; reference: wild-type fitted maximum; direction: higher = stronger binding
Target: ABI1, truncated, D143A, DHFR fusion (Arabidopsis thaliana)
Notes: methotrexate growth selection, single substitutions
Starting sequence: PYL1, truncated, DHFR fusion (Arabidopsis thaliana); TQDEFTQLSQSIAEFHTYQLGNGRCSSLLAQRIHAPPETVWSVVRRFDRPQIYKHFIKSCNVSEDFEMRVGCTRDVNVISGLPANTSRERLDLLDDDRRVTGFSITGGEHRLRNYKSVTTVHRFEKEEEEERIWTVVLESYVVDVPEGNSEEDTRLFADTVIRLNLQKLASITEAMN
Variant | relative binding score [%]
R24H | 93.7
T173D | 15.1
R163I | 60.6
M68A | 103
C60E | 11
G71F | 55.1
V76S | 68.1
T39P | 78.2
F47L | 1.67
S171V | 97.8
F56I | 3
D96M | 78.6
A170M | 94.9
E128F | 105
H110P | 9.66
R123E | 111

Excerpt of the above (study 4):
Strand | E-score
AGCACTAG | -0.11
AACATTCC | 0.0514
AACTCCAA | -0.0328
CCAAAAAC | 0.102
AGAAACGG | -0.0502
CAGGTGAG | -0.203
CCCGATTC | -0.0986
AGCGGCCA | -0.305
GAAAGCCC | -0.141
